Measured values from different studies.
Lines come from different studies, so protocols differ. Numbers after ± are the reported error.

Compound	target	test	test system	conditions	how to read	endpoint	result
O=C1c2c(O)ccc(O)c2C(=O)c2c(NCCNCCO)ccc(NCCNCCO)c21	double-stranded RNA	RNA intercalation, thiazole orange displacement		together with: thiazole orange		IC50	0.358 µM
O=C(Nc1cccnn1)N1CCN([C@@H]2CCOc3cc(C(F)(F)F)ccc32)CC1	NMDA	Cerep BioPrint		20 µM		inhibition	12%
Cc1ccccc1OP(=O)(Oc1ccccc1C)Oc1ccccc1C	carboxylesterase (mouse)	inhibitor	PON1+/+ mice, serum	dermal, 10 mg/kg, 24 h		carboxylesterase inhibition	inhibited
CO[C@H]1C[C@H](O[C@@H]2/C(C)=C/C[C@@H]3C[C@@H](C[C@]4(CC[C@H](C)[C@@H](C5CCCCC5)O4)O3)OC(=O)[C@@H]3C=C(C)/C(=N/O)[C@H]4OC/C(=C\C=C\[C@@H]2C)[C@]43O)O[C@@H](C)[C@@H]1O	human FXR		HEK293 cells			IC50	17.9 ± 0.6 µM
C[C@H](CCCC(C)(C)O)[C@H]1CC[C@H]2[C@@H]3CC=C4C[C@@H](O)CC[C@]4(C)[C@H]3CC[C@]12C	NMDA receptor (rat)	NMDA-evoked peak current, potentiator, whole-cell patch clamp	cultured hippocampal neurons	1 µM, together with: NMDA 10 µM		potentiation	17.8 ± 4.7%
Clc1ccc(Cl)c(-c2ccccc2Cl)c1	gap junction, rat	gap junctional communication, scrape loading dye transfer	WB-F344 rat liver epithelial	1 h		IC25	8 µM
COc1cc(Nc2ncc(F)c(Nc3ccc4c(n3)NC(=O)C(C)(C)O4)n2)cc(OC)c1OC	GABAA receptor agonist site	binding				IC50	> 10 µM
Clc1ccc(-c2ccc(Cl)cc2Cl)cc1	gap junction, rat	gap junctional communication, scrape loading dye transfer	WB-F344 rat liver epithelial	1 h		IC25	14 µM
COC(=O)[C@]1(O)C[C@@H]2O[C@@]1(C)n1c3ccccc3c3c4c(c5c6ccccc6n2c5c31)C(=O)NC4	human TRPM8		HEK293	5 µM, 24 h	relative to: control	remaining activity	80.8 ± 7.22%
COc1ncccc1-c1cnn2ccc(N3CCN(C(=O)OC(C)C)CC3)nc12	T-type calcium channel	inhibitor				IC50	> 25 µM
CCCCCCc1ccc(O)cc1	HBV core protein Cp149 dimer	solution NMR		4 molar equivalents, pH 7.5, 295 K, average over eight residues	relative to: apo Cp149 dimer	average chemical shift perturbation	0.083 ppm
COc1cc(OC)c(/C=C2/C(=O)Nc3ccccc32)c(OC)c1	human TRPM8		HEK293	5 µM, 24 h	relative to: control	remaining activity	119 ± 7.75%
CC(C)NC[C@@H](C(=O)N1CCN(c2ncnc3c2[C@H](C)C[C@H]3Cl)CC1)c1ccc(Cl)cc1	Akt	inhibitor	mouse BT-474 xenograft	oral, 100 mg/kg		response duration	24 h
CO[C@H]1[C@@H](OC)C[C@H](C)[C@@H](OC)C2=CC(=O)C=C(NC(=O)/C(C)=C/C=C\[C@H](OC)[C@@H](OC(N)=O)/C(C)=C/[C@@H]1C)C2=O	human TRPM8		HEK293	5 µM, 24 h	relative to: control	remaining activity	120 ± 8.38%
COc1ccc(N2C(=O)N(c3c(C)cccc3Cl)Cc3cnc(Nc4ccc(C5CCN(C)CC5)cc4OC)nc32)nc1	NDRG1 kinase, human	kinase activity		0.5 µM		inhibition	2.44%
C[C@]1(CO)Cc2ncn(-c3ccc(C#N)c(Cl)c3)c2C(=O)O1	aldosterone synthase	inhibitor	human, plasma	80 mg, days 14 and 15, European multiple ascending dose	relative to: day 1	plasma corticosterone	increased
C#Cc1nc(C(=O)N2CCC(NC(=O)c3cnc(-c4ccccc4)s3)(c3nc4ccccc4n3C)CC2)cs1	STING (mouse)	inhibitor, RT-qPCR	iBMDMs	concentration not given, 2 h, together with: 500 nM diABZI		IL6 mRNA level	inhibited
Oc1cc(Cl)cc(-c2cccc(Cl)c2)c1	gap junction, rat	gap junctional communication, scrape loading dye transfer	WB-F344 rat liver epithelial	1 h		IC50	33 µM
O=C1c2ccccc2C(=O)C1c1ccccc1	human FXR	reporter gene	HEK293 FXR-bla cells	concentration not given		activity	inactive
CC(C)CC(=O)OC[C@H]1O[C@@](C#N)(c2ccc3c(N)ncnn23)[C@H](O)[C@@H]1O	NMDA receptor Agonism site (rat)			20 µM		inhibition	3%
CC(=O)C(c1ccccc1)c1ccccc1	human FXR	reporter gene	HEK293 FXR-bla cells	concentration not given		activity	inactive
Cn1cccc1-c1cccnc1	sigma receptor 2	radioligand binding		50 µM		inhibition	4.75%
Cc1c(COC(=O)[C@@H]2[C@H](/C=C(\Cl)C(F)(F)F)C2(C)C)cccc1-c1ccccc1 (racemic)	human FXRα-RXRα	protein-protein interaction, antagonist, mammalian two-hybrid	COS-7 cells	concentration not given, PGC1α co-transfected, together with: GW4064	relative to: GW4064 alone	relative interaction	187%
COc1cc(C(=O)N2CC[C@@H](O)[C@@H](N)C2)cc2nc(-c3cc4ccccc4n3CC3CC3)n(C)c12	PAD4	immunoblot	human neutrophils	10 µM, together with: A23187 or Staphylococcus aureus stimulation		protein citrullination	inhibited
O=[N+]([O-])/C=C/c1ccc2c(c1)OCO2	human TRPM8		HEK293	5 µM, 24 h	relative to: control	remaining activity	97.2 ± 7.21%
Oc1ccc(-c2ccc(Cl)cc2)c(Cl)c1	gap junction, rat	gap junctional communication, scrape loading dye transfer	WB-F344 rat liver epithelial	1 h		IC50	19 µM
CCCCCCO	Aedes aegypti OR15/Orco	agonist, two-electrode voltage clamp	Xenopus oocytes			EC50	1.07 µM
C[C@H](C(=O)N[C@H]1COc2ccccc2[C@@H]1S(C)(=O)=O)c1ccc(F)cc1	GABAA chloride channel, rat	binding		10 µM, Eurofins selectivity panel, together with: TBOB		inhibition	1%
Clc1cccc(-c2cccc(Cl)c2)c1	gap junction, rat	gap junctional communication, scrape loading dye transfer	WB-F344 rat liver epithelial	1 h		IC25	18 µM
CCOP(=O)(OCC)Oc1ccc([N+](=O)[O-])cc1	carboxylesterase (mouse)		PON1 knockout mouse, liver	dermal, 0.35 mg/kg, 4 h		inhibition	4%

For quick reference, copied from above:
Compound	target	test	test system	conditions	how to read	endpoint	result
C[C@H](CCCC(C)(C)O)[C@H]1CC[C@H]2[C@@H]3CC=C4C[C@@H](O)CC[C@]4(C)[C@H]3CC[C@]12C	NMDA receptor (rat)	NMDA-evoked peak current, potentiator, whole-cell patch clamp	cultured hippocampal neurons	1 µM, together with: NMDA 10 µM		potentiation	17.8 ± 4.7%
Clc1ccc(Cl)c(-c2ccccc2Cl)c1	gap junction, rat	gap junctional communication, scrape loading dye transfer	WB-F344 rat liver epithelial	1 h		IC25	8 µM
